Published values of several laboratories.
Each line is one published result; not all experiments were run side by side. Numbers after ± are the reported error.

COc1ccc2nc(-c3ccc(N(C)C)cc3)sc2c1
relative brightness (PBS; free dye; relative to: thioflavin T): 1.55

C[C@@H](C(=O)O)c1ccc(-c2ccccc2)c(F)c1
relative change of HPLC peak area (HPLC; solution; concentration not given, 10 h, room temperature): 0.37%

[Cl-].[Cl-].[Ru+2].c1ccc(-c2ccccn2)nc1.c1ccc(-c2ccccn2)nc1.c1ccc(-c2ccnc3c2ccc2c(-c4ccccc4)ccnc23)cc1
relative log P (C18 HPLC retention time; water; 100 µM; relative to: standards of known log P): 1.64

CC(=O)OCC1=C2C(C)=CC(C)=[N+]2[B-](C)(C)n2c(C)cc(C)c21
relative singlet oxygen generation (DPBF degradation; isopropyl alcohol; irradiation above 500 nm; relative to: methylene blue): 69 ± 18%

[Cl-].[Cl-].[Ru+2].c1ccc2nc(-c3ccc4ccccc4n3)ccc2c1.c1cnc2c(c1)ccc1cccnc12.c1cnc2c(c1)ccc1cccnc12
relative log P (C18 HPLC retention time; water; 100 µM; relative to: standards of known log P): 1.24

C=CC(=O)Nc1cc(Nc2nccc(-c3cn(C4CC4)c4ccccc34)n2)c(OC)cc1N(C)CCNC
relative error (bench-top stability; rat plasma; 80 ng/mL, 3 h, room temperature; relative to: nominal concentration): -1%

CCCNC(=O)[C@H]1O[C@@H]1C(=O)N[C@H](C(=O)N1CCC[C@H]1C(=O)OCC1=C2C(C)=CC(C)=[N+]2[B-](C)(C)n2c(C)cc(C)c21)[C@@H](C)CC
relative singlet oxygen generation (DPBF degradation; isopropyl alcohol; irradiation above 500 nm; relative to: methylene blue): 153 ± 35%

CCNCC#CCNc1ccnc2cc(Cl)ccc12
relative UV abundance (item: compound as metabolite; mouse hepatocytes; 10 µM DAQ, 30 min; relative to: parent at time zero): 58.6%

Cc1ccc2ccc3ccc(C)nc3c2n1.Cc1ccc2ccc3ccc(C)nc3c2n1.Clc1ccc(-c2cc(-c3ccccn3)nn2-c2ccccc2)cc1.[Cl-].[Cl-].[Ru+2]
relative log P (C18 HPLC retention time; water; 100 µM; relative to: standards of known log P): 1.61

CCCNC(=O)[C@H]1O[C@@H]1C(=O)N[C@H](C(=O)N1CCC[C@H]1C(=O)OCC1=C2C(C)=CC(C)=[N+]2[B-](F)(F)n2c(C)cc(C)c21)[C@@H](C)CC
relative singlet oxygen generation (DPBF degradation; isopropyl alcohol; irradiation above 500 nm; relative to: methylene blue): 31.3 ± 8.8%

A few entries again:
[Cl-].[Cl-].[Ru+2].c1ccc2nc(-c3ccc4ccccc4n3)ccc2c1.c1cnc2c(c1)ccc1cccnc12.c1cnc2c(c1)ccc1cccnc12
relative log P (C18 HPLC retention time; water; 100 µM; relative to: standards of known log P): 1.24
